Assay results gathered from unrelated publications.
Parts stem from different laboratories: compare values within a part only.

Set 1 — target: Sox-I, HMG box (Salpingoeca helianthica); method: Spec-seq; molecule type: double-stranded DNA, one strand shown; matrix: in vitro; concentration: not given; notes: whole probe, mean of replicates; relative to: not given; reading: lower = stronger binding
Target sequence (chain): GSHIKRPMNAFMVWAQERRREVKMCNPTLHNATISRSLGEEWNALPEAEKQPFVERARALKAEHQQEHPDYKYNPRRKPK
Strand	relative binding energy [ln ratio]
GAGTCGTCTCGTCAGCACGGCCGTTCCGTAGAGCACTCAGGTC	0.987
GAGTCGTCTCGTCAGCACCATCCCCCCGTAGAGCACTCAGGTC	0.93
GAGTCGTCTCGTCAGCACCGAAGTTCCGTAGAGCACTCAGGTC	0.722

Set 2 — method: protein-binding microarray; molecule type: double-stranded DNA, one strand shown; matrix: in vitro; concentration: 250 nM; notes: 60-bp whole probe; together with: salmon DNA 0.4 mg/ml; relative to: random background probes; reading: higher = stronger binding
Target: Interferon regulatory factor 5, full length, phosphomimetic (IRF5, Homo sapiens, UniProt Q13568-2, residues 1-514, K96S/S451D/S453D/S456D/S462D)
Strand	log fluorescence [z-score]
GCCTAGCACGACGAACTGACTTTCGAGACGTGCTAGGTCTTGATTCGCTTGACGCTGCTG	5.52
GCCTAGCACTTAGATTTCGGATATCGATTAGTGCTAGTCTTGATTCGCTTGACGCTGCTG	5.32
GCCTAGCACCTCTATACCCATGTAGAGAGGTGCTAGGTCTTGATTCGCTTGACGCTGCTG	-0.152

Other studies, line by line
Substance	target	test	test system	conditions	scale	quantity	result
CTGGGTCC	Histone acetyltransferase KAT6A, both winged helices, GST fusion (KAT6A, Homo sapiens, UniProt Q92794, residues 1-181)	protein binding microarray	double-stranded DNA, one strand shown, in vitro	not given, 8-mer, flanks averaged, mean of 2 arrays, mostly near background	relative to: not given, higher = stronger binding	E-score	-0.0529
PhoQ, residues 284 288 289 292 302 303 SIHLQL	PhoP, residues 12 14 15 18 19 IQSYL (Escherichia coli, UniProt P23836)	Sort-seq, item: YFP reporter	E. coli	PhoQ-PhoP variant library, together with: 10 µM Mg2+	relative to: high Mg2+ state, higher = stronger signaling	fold induction	6.84
TCGCGGCA	Histone acetyltransferase KAT6A, winged helix 1, GST fusion (KAT6A, Homo sapiens, UniProt Q92794, residues 1-85)	protein binding microarray	double-stranded DNA, one strand shown, in vitro	not given, 8-mer, flanks averaged, mean of 2 arrays, mostly near background	relative to: not given, higher = stronger binding	E-score	0.41

Repeated from above (set 2):
Strand	log fluorescence [z-score]
GCCTAGCACCTCTATACCCATGTAGAGAGGTGCTAGGTCTTGATTCGCTTGACGCTGCTG	-0.152
